Experimental data pooled from the literature.
A part holds a random share of what one study measured.
UniProt P10721, sequence (whole entry, unmodified, looked up): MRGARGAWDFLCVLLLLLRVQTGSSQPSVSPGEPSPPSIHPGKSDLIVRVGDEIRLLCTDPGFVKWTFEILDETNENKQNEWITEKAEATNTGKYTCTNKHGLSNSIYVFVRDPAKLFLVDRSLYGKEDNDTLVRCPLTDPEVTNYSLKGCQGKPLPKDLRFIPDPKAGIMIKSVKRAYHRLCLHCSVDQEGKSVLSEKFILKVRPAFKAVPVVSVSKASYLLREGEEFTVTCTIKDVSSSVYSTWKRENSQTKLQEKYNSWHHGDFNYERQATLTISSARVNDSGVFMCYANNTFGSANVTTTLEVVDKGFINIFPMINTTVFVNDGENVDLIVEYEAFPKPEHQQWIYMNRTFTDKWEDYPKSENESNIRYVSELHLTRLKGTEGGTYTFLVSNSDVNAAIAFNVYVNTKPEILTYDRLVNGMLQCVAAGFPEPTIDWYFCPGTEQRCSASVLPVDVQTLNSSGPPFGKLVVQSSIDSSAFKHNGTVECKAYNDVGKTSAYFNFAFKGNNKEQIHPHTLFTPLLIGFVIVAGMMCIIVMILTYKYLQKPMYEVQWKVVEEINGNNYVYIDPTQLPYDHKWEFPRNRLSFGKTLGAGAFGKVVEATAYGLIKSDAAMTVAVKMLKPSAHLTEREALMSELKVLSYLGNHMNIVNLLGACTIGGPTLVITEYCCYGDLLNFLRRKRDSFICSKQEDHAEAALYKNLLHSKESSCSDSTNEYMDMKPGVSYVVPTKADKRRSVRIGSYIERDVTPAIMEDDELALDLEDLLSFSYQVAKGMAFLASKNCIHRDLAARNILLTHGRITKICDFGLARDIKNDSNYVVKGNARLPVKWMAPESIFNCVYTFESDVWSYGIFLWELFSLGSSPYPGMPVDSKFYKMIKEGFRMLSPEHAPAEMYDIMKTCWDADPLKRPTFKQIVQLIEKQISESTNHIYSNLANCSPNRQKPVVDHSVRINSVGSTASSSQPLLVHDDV
UniProt Q9H2G2, sequence (whole entry, looked up): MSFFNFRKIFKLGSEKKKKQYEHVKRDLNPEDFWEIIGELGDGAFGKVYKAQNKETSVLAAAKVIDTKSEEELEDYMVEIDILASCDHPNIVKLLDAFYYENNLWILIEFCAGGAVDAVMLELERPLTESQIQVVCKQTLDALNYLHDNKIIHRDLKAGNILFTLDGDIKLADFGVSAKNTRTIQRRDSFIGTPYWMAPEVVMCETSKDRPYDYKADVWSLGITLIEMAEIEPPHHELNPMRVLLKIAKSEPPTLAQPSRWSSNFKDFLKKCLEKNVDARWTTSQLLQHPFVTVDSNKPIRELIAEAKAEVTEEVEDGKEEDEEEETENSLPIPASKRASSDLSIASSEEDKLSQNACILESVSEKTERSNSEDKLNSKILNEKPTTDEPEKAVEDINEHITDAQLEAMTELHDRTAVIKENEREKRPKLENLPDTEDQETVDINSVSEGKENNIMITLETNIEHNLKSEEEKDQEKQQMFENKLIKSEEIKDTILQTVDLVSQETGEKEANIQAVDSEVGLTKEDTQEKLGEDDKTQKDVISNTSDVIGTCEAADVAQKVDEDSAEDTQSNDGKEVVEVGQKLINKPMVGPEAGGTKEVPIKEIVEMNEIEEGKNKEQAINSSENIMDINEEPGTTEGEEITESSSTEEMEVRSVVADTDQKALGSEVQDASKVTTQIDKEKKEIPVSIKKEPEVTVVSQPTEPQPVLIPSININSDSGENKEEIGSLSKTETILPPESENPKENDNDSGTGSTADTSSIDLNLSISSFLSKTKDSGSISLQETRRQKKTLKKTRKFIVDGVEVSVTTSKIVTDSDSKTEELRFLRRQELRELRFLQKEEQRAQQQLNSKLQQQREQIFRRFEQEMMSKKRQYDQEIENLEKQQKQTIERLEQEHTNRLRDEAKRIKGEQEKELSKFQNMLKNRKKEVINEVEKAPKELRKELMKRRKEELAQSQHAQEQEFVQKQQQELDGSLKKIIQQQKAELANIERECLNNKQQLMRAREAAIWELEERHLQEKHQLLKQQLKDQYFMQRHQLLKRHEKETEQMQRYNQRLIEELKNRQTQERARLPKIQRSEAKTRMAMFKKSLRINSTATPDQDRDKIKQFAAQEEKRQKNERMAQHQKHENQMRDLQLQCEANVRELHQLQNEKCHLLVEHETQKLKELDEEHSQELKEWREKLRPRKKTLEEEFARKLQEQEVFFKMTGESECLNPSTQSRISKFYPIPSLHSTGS
UniProt P15056, sequence (whole entry, looked up): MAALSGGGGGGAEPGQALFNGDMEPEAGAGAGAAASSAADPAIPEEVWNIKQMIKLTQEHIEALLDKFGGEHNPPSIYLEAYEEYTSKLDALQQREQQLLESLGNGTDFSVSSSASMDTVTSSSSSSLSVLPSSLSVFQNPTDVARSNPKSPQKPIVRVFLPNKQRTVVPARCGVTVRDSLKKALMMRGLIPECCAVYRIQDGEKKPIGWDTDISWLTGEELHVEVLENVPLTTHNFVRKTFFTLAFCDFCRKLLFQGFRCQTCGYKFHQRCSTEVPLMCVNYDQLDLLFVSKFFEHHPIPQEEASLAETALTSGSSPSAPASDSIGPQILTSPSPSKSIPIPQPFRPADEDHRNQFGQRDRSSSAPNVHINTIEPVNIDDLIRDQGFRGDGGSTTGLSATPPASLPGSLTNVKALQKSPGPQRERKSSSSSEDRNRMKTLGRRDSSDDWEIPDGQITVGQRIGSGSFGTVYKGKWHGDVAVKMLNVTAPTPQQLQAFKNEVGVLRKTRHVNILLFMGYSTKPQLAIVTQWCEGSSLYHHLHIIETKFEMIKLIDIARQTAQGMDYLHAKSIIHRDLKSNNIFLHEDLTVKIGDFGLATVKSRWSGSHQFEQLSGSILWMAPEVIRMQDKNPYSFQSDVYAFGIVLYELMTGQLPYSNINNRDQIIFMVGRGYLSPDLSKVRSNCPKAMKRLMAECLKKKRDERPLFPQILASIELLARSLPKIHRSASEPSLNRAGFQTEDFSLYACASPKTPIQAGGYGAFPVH
UniProt Q8IWQ3, sequence (whole entry, looked up): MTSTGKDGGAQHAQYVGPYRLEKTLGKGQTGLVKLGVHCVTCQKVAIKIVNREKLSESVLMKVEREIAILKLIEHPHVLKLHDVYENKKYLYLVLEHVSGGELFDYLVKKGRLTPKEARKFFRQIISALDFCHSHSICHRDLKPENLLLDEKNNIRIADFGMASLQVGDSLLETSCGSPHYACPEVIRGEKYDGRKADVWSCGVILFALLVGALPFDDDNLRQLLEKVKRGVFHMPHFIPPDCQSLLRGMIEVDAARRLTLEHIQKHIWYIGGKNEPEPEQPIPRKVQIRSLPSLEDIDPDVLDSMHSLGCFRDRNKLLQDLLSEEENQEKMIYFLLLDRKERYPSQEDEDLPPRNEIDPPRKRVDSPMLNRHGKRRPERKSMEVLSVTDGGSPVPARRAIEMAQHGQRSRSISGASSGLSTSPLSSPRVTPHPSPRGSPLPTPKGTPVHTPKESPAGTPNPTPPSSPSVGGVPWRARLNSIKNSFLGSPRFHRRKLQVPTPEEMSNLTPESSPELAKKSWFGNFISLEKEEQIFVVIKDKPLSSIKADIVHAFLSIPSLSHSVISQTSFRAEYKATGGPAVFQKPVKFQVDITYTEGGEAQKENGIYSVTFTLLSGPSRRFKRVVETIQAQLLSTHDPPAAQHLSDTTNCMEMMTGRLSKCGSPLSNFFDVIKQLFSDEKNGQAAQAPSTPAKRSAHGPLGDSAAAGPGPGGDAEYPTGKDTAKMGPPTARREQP
UniProt Q16566, sequence (whole entry, looked up): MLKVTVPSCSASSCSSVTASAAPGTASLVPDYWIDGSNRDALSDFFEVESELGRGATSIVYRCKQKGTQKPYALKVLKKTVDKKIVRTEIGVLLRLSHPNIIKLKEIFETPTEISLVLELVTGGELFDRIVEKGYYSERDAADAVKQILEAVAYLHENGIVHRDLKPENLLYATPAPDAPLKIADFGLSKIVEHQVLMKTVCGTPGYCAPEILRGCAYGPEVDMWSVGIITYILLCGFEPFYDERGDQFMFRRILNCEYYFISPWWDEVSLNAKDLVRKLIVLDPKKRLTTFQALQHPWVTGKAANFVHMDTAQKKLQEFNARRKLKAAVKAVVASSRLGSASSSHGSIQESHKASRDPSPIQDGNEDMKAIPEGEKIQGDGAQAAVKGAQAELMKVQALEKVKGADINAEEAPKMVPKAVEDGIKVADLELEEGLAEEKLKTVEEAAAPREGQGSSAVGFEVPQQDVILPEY

Sample 1
SMILES: COCCOc1nc(-c2ccc(Cl)nc2)nc2c1CN(C(=O)c1ncn3ccccc13)CC2
Effect on: cell-free assay
Method: competition with immobilised ligand
Concentration: 0.1 µM
target	remaining binding [%]
STE20-like serine/threonine-protein kinase (SLK, Homo sapiens, UniProt Q9H2G2)	100
Mast/stem cell growth factor receptor Kit (KIT, Homo sapiens, UniProt P10721, D816H)	68
Mitogen-activated protein kinase 7 (MAPK7, Homo sapiens, UniProt Q13164)	100
Serine/threonine-protein kinase BRSK2 (BRSK2, Homo sapiens, UniProt Q8IWQ3)	93
Casein kinase II subunit alpha (CSNK2A1, Homo sapiens, UniProt P68400)	99
Receptor-type tyrosine-protein kinase FLT3 (FLT3, Homo sapiens, UniProt P36888, ITD)	96
Phosphatidylinositol 4,5-bisphosphate 3-kinase catalytic subunit alpha isoform (PIK3CA, Homo sapiens, UniProt P42336, I800L)	66
Mitogen-activated protein kinase kinase kinase 19 (MAP3K19, Homo sapiens, UniProt Q56UN5)	100
Ephrin type-B receptor 6 (EPHB6, Homo sapiens, UniProt O15197)	78
Tyrosine-protein kinase Blk (BLK, Homo sapiens, UniProt P51451)	75
Mast/stem cell growth factor receptor Kit (KIT, Homo sapiens, UniProt P10721, T670I/V559D)	100
NUAK family SNF1-like kinase 2 (NUAK2, Homo sapiens, UniProt Q9H093)	100
Calcium/calmodulin-dependent protein kinase type IV (CAMK4, Homo sapiens, UniProt Q16566)	100
Dual specificity mitogen-activated protein kinase kinase 6 (MAP2K6, Homo sapiens, UniProt P52564)	100
Serine/threonine-protein kinase B-raf (BRAF, Homo sapiens, UniProt P15056)	100
Dual specificity protein kinase CLK3 (CLK3, Homo sapiens, UniProt P49761)	100
Macrophage-stimulating protein receptor (MST1R, Homo sapiens, UniProt Q04912)	100
Serine/threonine-protein kinase DCLK2 (DCLK2, Homo sapiens, UniProt Q8N568)	100
Phosphatidylinositol 3-kinase C2 domain-containing subunit gamma (PIK3C2G, Homo sapiens, UniProt O75747)	100
Inhibitor of nuclear factor kappa-B kinase subunit beta (IKBKB, Homo sapiens, UniProt O14920)	100
Serine/threonine-protein kinase MAK (MAK, Homo sapiens, UniProt P20794)	100

Sample 2
Target: TGF-beta receptor type-2 (TGFBR2, Homo sapiens, UniProt P37173)
UniProt P37173, sequence (whole entry, looked up): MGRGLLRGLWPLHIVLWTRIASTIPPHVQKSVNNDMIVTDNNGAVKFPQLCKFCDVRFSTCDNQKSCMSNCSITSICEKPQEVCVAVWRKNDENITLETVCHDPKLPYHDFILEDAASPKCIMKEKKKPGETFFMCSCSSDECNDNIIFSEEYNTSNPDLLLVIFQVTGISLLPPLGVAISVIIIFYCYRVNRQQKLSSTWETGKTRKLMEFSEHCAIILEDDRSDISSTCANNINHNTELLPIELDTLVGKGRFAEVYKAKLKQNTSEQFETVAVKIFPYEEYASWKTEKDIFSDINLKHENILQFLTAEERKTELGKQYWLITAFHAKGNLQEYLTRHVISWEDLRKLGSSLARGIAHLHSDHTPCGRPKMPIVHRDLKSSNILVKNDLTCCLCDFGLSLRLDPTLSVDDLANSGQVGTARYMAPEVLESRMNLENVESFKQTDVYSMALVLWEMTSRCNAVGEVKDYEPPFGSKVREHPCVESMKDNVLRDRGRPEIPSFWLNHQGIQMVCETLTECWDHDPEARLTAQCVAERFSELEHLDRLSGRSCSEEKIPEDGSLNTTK
Effect on: enzyme activity
Mode: inhibitor
Concentration: 0.5 µM
Relative to: control
Compound	remaining activity
Cc1ccc(NC(=O)c2ccc(CN3CCN(C)CC3)cc2)cc1Nc1nc(-c2cccnc2)cs1	101%
Nc1ccc2ncnc(NCCc3ccc(Oc4ccccc4)cc3)c2c1	110%
Cc1cccc(-c2[nH]c(C(C)(C)C)nc2-c2ccc3c(c2)OCO3)n1	105%
Cn1sc(=O)n(Cc2ccccc2)c1=O	123%
N#CC(C#N)=C(N)/C(C#N)=C/c1ccc(O)cc1	113%
O=S(=O)(c1cccc2cnccc12)N1CCCNCC1	97%
Cn1c2ccccc2c2c3c(c4c5ccccc5n(CCC#N)c4c21)CNC3=O	117%

Sample 3
Target: POU domain, class 5, transcription factor 1, POU domain (Pou5f1, Mus musculus, UniProt P20263, residues 131-289)
UniProt P20263, sequence (131-289, looked up): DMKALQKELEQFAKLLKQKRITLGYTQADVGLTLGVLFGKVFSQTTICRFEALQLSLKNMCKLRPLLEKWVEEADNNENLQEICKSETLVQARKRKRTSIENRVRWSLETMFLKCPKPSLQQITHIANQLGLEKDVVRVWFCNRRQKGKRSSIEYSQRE
Method: Spec-seq
Form: double-stranded DNA, one strand shown
Sample: in vitro
Concentration: not given
Setting: whole probe, mean of replicates
Relative to: not given
Direction: lower = stronger binding
Shared flanks, not repeated: GAGTCGTCTCGTCAGCAC … CCGTAGAGCACTCAGGTC
Oligonucleotide	relative binding energy [ln ratio]
GATCTAAT	0.454
GAAATAAT	0.0822
GGCCTAAT	0.873
ATGGCTAT	0.494
ATCTCGAT	0.715
ATCACTAT	0.379
ATGCGTAA	-0.36
CTTATAAT	0.56

Sample 4
Target: Sal-like protein 4, full length isoform B (SALL4, Homo sapiens, UniProt Q9UJQ4-2, residues 1-616)
Method: universal PBM
Form: double-stranded DNA, one strand shown
Sample: in vitro
Concentration: not given
Setting: 8-mer, flanks averaged, mean of replicates
Direction: higher = stronger binding
Target sequence (chain): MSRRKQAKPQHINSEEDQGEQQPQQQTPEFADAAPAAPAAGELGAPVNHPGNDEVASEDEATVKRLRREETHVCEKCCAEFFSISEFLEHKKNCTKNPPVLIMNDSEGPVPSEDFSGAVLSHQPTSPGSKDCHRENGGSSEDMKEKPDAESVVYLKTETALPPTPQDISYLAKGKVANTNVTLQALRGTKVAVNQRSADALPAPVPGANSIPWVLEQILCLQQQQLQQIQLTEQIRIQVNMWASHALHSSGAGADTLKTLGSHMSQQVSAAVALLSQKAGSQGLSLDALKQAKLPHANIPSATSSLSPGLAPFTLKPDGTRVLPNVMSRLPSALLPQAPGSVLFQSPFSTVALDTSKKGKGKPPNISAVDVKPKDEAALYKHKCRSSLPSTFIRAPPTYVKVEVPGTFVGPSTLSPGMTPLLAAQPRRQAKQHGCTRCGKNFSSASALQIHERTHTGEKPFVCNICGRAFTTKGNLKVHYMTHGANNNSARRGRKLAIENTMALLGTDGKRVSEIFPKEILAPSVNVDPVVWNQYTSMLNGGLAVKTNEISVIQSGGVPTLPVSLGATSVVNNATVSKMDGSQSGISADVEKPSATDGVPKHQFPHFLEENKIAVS
Oligonucleotide	E-score
ACAGTGCG	-0.181
AGTCCATG	-0.0892
AGCTATCA	0.0851
GCGAATAA	0.0987
ACCGTATA	0.0623
AGCACGGA	-0.23
CCTGCAAA	-0.00557
ACTCAGCT	-0.0387

Single results of other studies
Oligonucleotide	target	assay	test system	conditions	how to read	measurement	result
AAAAAAAA (biotin)	RNA-binding protein 8A, RRM domain (RBM8A, Homo sapiens, UniProt Q9Y5S9, residues 50-174)	protein domain microarray	RNA, in vitro	not given, poly(A) 8-mer RNA, whole probe, immobilized GST-fusion domains, most near background	relative to: GST loading signal, higher = stronger binding	signal ratio	0.0641

A few entries again (sample 1):
target	remaining binding [%]
Serine/threonine-protein kinase BRSK2 (BRSK2, Homo sapiens, UniProt Q8IWQ3)	93
Casein kinase II subunit alpha (CSNK2A1, Homo sapiens, UniProt P68400)	99
Receptor-type tyrosine-protein kinase FLT3 (FLT3, Homo sapiens, UniProt P36888, ITD)	96
